Published values collected from several papers.
Compare with care: the assays were run in different laboratories. Values joined by “and” are separate records of one study, mostly repeats; a detail may differ. ± gives the spread as reported.
Sequence of UniProt Q14680 (whole entry, looked up): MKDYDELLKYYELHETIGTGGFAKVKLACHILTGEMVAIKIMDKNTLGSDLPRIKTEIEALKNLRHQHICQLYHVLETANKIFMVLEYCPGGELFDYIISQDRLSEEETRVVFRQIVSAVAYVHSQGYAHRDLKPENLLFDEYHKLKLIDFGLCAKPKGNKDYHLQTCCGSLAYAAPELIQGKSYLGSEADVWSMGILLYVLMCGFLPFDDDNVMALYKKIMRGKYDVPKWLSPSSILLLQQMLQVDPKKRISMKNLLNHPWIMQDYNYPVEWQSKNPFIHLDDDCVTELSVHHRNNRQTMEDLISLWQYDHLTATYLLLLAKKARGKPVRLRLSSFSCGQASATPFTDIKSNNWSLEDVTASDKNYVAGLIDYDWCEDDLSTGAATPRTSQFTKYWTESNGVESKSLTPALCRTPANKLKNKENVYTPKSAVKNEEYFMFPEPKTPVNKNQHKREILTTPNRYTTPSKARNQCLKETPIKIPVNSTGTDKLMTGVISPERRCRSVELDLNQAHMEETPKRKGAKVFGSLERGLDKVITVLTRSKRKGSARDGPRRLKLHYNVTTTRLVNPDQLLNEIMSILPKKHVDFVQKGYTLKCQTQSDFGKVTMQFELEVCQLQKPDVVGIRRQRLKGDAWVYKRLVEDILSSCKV

Compound | tested on | test | system | conditions | scale | endpoint | result
CC[C@H](C)[C@H](NC(=O)[C@@H](N)CC(N)=O)C(=O)N1CCC[C@H]1C(=O)N1CCC[C@H]1C(=O)N[C@@H](CC(C)C)C(=O)N[C@H](C(=O)N[C@@H](CCC(N)=O)C(=O)N[C@H](C(=O)N1CCC[C@H]1C(=O)N[C@H](C(=O)N[C@H](C(=O)N[C@H](C(=O)N1CCC[C@H]1C(=O)N1CCC[C@H]1C(=O)N[C@@H](Cc1ccccc1)C(=O)N[C@@H](CC(C)C)C(=O)N[C@@H](CCC(N)=O)C(=O)N1CCC[C@H]1C(=O)N[C@@H](CCC(=O)O)C(=O)O)C(C)C)C(C)C)C(C)C)[C@@H](C)O)[C@@H](C)O | Caco-2 monolayers | – | – | 10 µM, 15 min, 37 °C | – | transport | 0.05 ± 0.03%
CNC(=O)Oc1cccc2ccccc12 | SH-SY5Y | cell viability, propidium iodide staining | – | 24 h, nominal concentration | – | IC10 | 40.4 µM
Cc1cc(C(C)(C)c2ccc(O)c(C)c2)ccc1O | HepG2 spheroids, dissociated | annexin V-FITC/PI flow cytometry | – | 1 µM, 96 h | – | early apoptotic cells | 3.38 ± 1.81%
COc1cc2c(Oc3ccc4[nH]c(C)cc4c3F)ccnc2cc1OCC1(N)CC1 | – | – | paediatric recurrent refractory sarcoma | 12 mg | – | grade 1 or 2 hand-foot syndrome | 45.5%
O=c1ccc2ccccc2o1 | HepG2 | cell count | – | concentration not given, 24 h, high-content imaging | – | response probability | 0.03%
N=C(N)NCCC[C@H](NC(=O)[C@H](CCCNC(=N)N)NC(=O)[C@H](CCCNC(=N)N)NC(=O)[C@H](CCC(N)=O)NC(=O)[C@H](CCCNC(=N)N)NC(=O)[C@H](CCCNC(=N)N)NC(=O)[C@H](CCCCN)NC(=O)[C@H](CCCCN)NC(=O)[C@H](CCCNC(=N)N)NC(=O)CNC(=O)[C@@H](N)Cc1ccc(O)cc1)C(=O)O | DF-1 | – | – | 25 µM, 48 h | relative to: untreated cells | viability | 98.4 ± 0.81%
CN1CC[C@@H](c2c(O)cc(O)c3c(=O)cc(-c4ccc(C(F)(F)F)cc4Cl)oc23)[C@@H]1CO | – | measured: Nausea | B-cell malignancies | oral, 100 mg, intermittent dosing | – | patients with adverse event | 33.3%
O=[N+]([O-])c1ccc(-c2nn(-c3ccccc3)c3sc(NC(c4ccccc4O)P(=O)(Oc4ccccc4)Oc4ccccc4)nc23)cc1 (stereo not drawn) | Vero cells | SRB | – | 1 µM, 10% fetal bovine serum | – | viability | 96.8%
CC(c1ccccc1)(c1ccc(O)cc1)c1ccc(O)cc1 | HepG2 spheroids | annexin V-FITC/PI flow cytometry | – | 0.10 µM, 96 h | – | necrotic cells | 39.1 ± 18%
C[C@H]1CN(c2n[nH]c3nc(N[C@H]4CC[C@H](NS(=O)(=O)CCC(F)(F)F)CC4)ncc23)CCO1 | Maternal embryonic leucine zipper kinase (MELK, Homo sapiens, UniProt Q14680) | inhibitor, Kinobeads competition profiling | – | 0.8 µM | relative to: vehicle | relative abundance | 1.01
N#C[C@@]1(n2ccc(N)nc2=O)O[C@H](CO)[C@@H](O)[C@H]1O | human PBM cells | – | – | – | – | CC50 | 97.6 ± 4.4 µM
C[C@H](NC(=O)[C@H](Cc1ccc(O)cc1)NC(=O)[C@H](CCCNC(=N)N)NC(=O)[C@H](CCCNC(=N)N)NC(=O)[C@H](CCCNC(=N)N)NC(=O)[C@@H](N)CCCNC(=N)N)C(=O)N[C@@H](CCCNC(=N)N)C(=O)N1CCC[C@H]1C(=O)N[C@@H](Cc1ccc(O)cc1)C(=O)N[C@@H](Cc1ccc(O)cc1)C(=O)N[C@@H](CCCNC(=N)N)C(=O)N[C@@H](CCCNC(=N)N)C(=O)N[C@@H](CCCNC(=N)N)C(=O)O | DF-1 | – | – | 5 µM, 24 h | relative to: untreated cells | viability | 105.9 ± 0.14%
Cc1cc(C(=O)NC(C)(C)COc2cccc3c2C(N)=NS(=O)(=O)N3)cc(C)n1 | Salmonella typhimurium | Ames test, initial | TA1535 | 50.0 µg/plate, with: rat liver S9 | relative to: solvent control | revertant ratio | 0.8
CO[C@H]1C[C@@H]2CC[C@@H](C)[C@@](O)(O2)C(=O)C(=O)N2CCCC[C@H]2C(=O)O[C@H]([C@H](C)C[C@@H]2CC[C@@H](OC(=O)NCCOCCOCCOCCOCCOCCOCCOCCOCCC(=O)N3CCc4cc(Cn5nc(-c6ccc7oc(N)nc7c6)c6c(N)ncnc65)ccc4C3)[C@H](OC)C2)C[C@@H](O)[C@H](C)/C=C(\C)[C@@H](O)[C@@H](OC)C(=O)[C@H](C)C[C@H](C)/C=C/C=C/C=C/1C | – | phase 1 dose escalation, measured: fatigue | advanced solid tumour patients | intravenous, 12 mg weekly, grade ≥3 | – | TRAE incidence | 0%
O=S(=O)(O)C(F)(F)C(F)(F)C(F)(F)C(F)(F)C(F)(F)C(F)(F)C(F)(F)C(F)(F)F | hTERT-RPTEC parental | – | – | concentration not given, 96-well plate | – | LDH release | 28.8 mU/mL and 17.1 mU/mL and 26.1 mU/mL and 26.6 mU/mL

Some of these lines once more:
Compound | tested on | test | system | conditions | scale | endpoint | result
COc1cc2c(Oc3ccc4[nH]c(C)cc4c3F)ccnc2cc1OCC1(N)CC1 | – | – | paediatric recurrent refractory sarcoma | 12 mg | – | grade 1 or 2 hand-foot syndrome | 45.5%
